Measurements of several laboratories.
Numbered parts are unrelated; each lists some results of a single study. Substitutions count along the parent as printed.

Block 1 — method: protein-binding microarray; molecule type: double-stranded DNA, one strand shown; sample: in vitro; concentration: not given; direction: higher = stronger binding; measurement: E-score
Target: Max-binding protein MNT, bHLH-zipper, MAX partner unstated (MNT, Homo sapiens, UniProt Q99583, residues 220-300)
Setting: k-mer, scored over probes, only values ≥0.25
Construct (chain): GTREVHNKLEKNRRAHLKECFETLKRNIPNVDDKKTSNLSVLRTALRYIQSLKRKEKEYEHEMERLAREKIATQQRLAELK
ACGTGTCC: 0.391
CACACGAG: 0.401
CGACACGC: 0.372
CCACATGG: 0.479
CGTGTCAG: 0.327
GCGTGTCA: 0.422
CCCTCACC: 0.27
CACATGAA: 0.323
ATCCCATG: 0.289
CATGTTTA: 0.34
CCCCTACC: 0.263
CCCGCCGC: 0.312
GTGGCGCA: 0.325
AGCATGTA: 0.356
CACGCAGG: 0.286
CCCACCAC: 0.281
CGTGGACC: 0.282
CGCGCACG: 0.413
AACACACG: 0.311
ACCATATG: 0.304
GTCCCACA: 0.264
CATGGAAC: 0.299
TGCGTCCA: 0.277

Block 2 — method: universal PBM; molecule type: double-stranded DNA, one strand shown; sample: in vitro; concentration: not given; direction: higher = stronger binding; measurement: E-score
Target: Sal-like protein 4, full length isoform B (SALL4, Homo sapiens, UniProt Q9UJQ4-2, residues 1-616)
Setting: 8-mer, flanks averaged, mean of replicates
ATACCAGG: -0.0203
TAGCAATA: 0.314
ATGATCGC: 0.0703
ACCTCACG: -0.116
AGTCTCTC: -0.155
GCTTGAAA: 0.127
ACGTTTAA: 0.255
CGGAGCGA: -0.172
TACATTCA: 0.298
CGTTATGA: 0.296
ATTCAAGC: 0.131
TTAAAAAA: 0.312
GATTTTTA: 0.241
CCTGATTC: -0.112
AACGGCTC: -0.193
TATGCGCA: 0.0239
CCCGTGTC: -0.346
GGCGGCGA: -0.348
GCGGAGCC: -0.377
CACTAGCA: -0.0236
AGGCGCAC: -0.269
CTATTCCC: -0.0903
GCTTACCA: 0.0233
ATCCTGTC: 0.103
GGCTGTTA: 0.0492

Block 3 — method: DHFR PCA, dose-response; sample: yeast; together with: (+)-ABA, dose series; direction: lower = more sensitive; measurement: ABA EC50
Target: ABI1, truncated, D143A, DHFR fusion (Arabidopsis thaliana, UniProt P49597)
Setting: Hill fit, not affinity, not high confidence
Starting sequence: PYL1, truncated, DHFR fusion (Arabidopsis thaliana, UniProt Q8VZS8); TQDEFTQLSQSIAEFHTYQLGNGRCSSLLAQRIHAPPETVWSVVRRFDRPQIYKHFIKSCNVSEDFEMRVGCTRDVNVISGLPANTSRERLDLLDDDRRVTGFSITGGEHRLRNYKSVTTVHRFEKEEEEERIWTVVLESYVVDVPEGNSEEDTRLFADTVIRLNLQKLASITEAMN
R99M: 9.78 µM
E89N: 13.9 µM
K54A: 1.94 µM
D159F: 670 µM
Y141D: 1.38 µM
V76G: 8.72 µM
F103Q: 1540 µM
F157S: 1090 µM
L112E: 125 µM
V161H: 1.39 µM
A84N: 100 µM
V78G: 1430 µM
I162G: 618 µM
V161D: 2.68 µM
P83Y: 358 µM
R98W: 60.3 µM

Block 4 — method: RNA Bind-n-Seq; molecule type: RNA; sample: in vitro; concentration: 365 nM; baseline: no-protein control; direction: higher = stronger binding; measurement: RBNS enrichment (R)
Target: RNA binding protein fox-1 homolog 2, RRM domain, GST-SBP tag (RBFOX2, Homo sapiens, UniProt O43251-10, residues 100-194)
Setting: natural RNA segment, single round, ends assumed
Shared flanks, not repeated: GGGAGUUCUACAGUCCGACGAUC … UGGAAUUCUCGGGUGCCAA
Construct (chain): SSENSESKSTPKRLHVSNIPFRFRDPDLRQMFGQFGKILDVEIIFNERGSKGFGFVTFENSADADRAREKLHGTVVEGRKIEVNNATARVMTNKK
CAGUCCCCCUCACUGCUUGAGCUAACACUGCCACCUCUUUUGUGUGAGCACAAAAGCCACGUCCCAAGCCACCUGGCCCGAUUCCACAGAUGUAUGUGCGGCCAGUGACU: 0.26
UGAGAAUUCAUGAGCACUUUAACUCUAAACUCUGAAUUUCAAAGCUUGAUGUGAAGUCCUCUAGAAUGUUUACAUUUACUAAGGUGUGCUGGGUCCUGUCUCUUUUGACU: 0.218
UUGGUCUUGCGAACCCCUAAAUUCUCUCGCUCACGACUGCACAGACUGUCUUGCGGCUCCUCUAUAGGAAAGAGUACUGAUGCCUGUCCGGCCCCGGUUCCCCUCAGGUC: 0.673
GGAUUCUGUAGUGCUGAUAGAAAACCUGAAGAAAGCAGCUCCUUGAUGGGGAGAAGUGAUUUCUUUCUUGCCUUCAAUGUGACCCUGUGAAGAUUUAUUGCAUUCUCCAU: 0.3
CGGGGGUGGGCUCUGGGGAAGCCGGUGCGCCCCCCACGCCUCCGCUGCCAGUGCCUUACAUUCUGGAGCGACCCCCCUCCCUGGUGCCUCCCAGCGAAGGGGGACCGCCG: 0.263
AAUGGAGACUUCCGGAUCCUGUCAGGGUGUCCCCCAUGCCUGGAAGAGGAGCUGGUGGCUGCCAGCCCUGGGGCCCGGCACAGGCCUGGGCCUUCCCCUUCCCUCAAGCC: 0.171
CAAAGAGAGCCCUCUGGGCCUCUCCUCCCAUACACACUACACUGCCCCUUCUCCCCCCAUCAAAACGCUCAGAGACGUUGUGAUGAUGCGACUGAGGAUUAUGCAACGUG: 0.431
AUUUAGUUUCCAGGCCAACCAUCCAGAUAGAGAUUCCCUCUUUCCUUUGAGCAGUGCUCUCAAGAGCUCCGUGCCUGUCCACAAUGACCUAGAGUGCAUCCUGCUCAUUG: 0.361

For quick reference, copied from above (block 2):
AACGGCTC: -0.193
TATGCGCA: 0.0239
CCCGTGTC: -0.346
GGCGGCGA: -0.348
GCGGAGCC: -0.377
CACTAGCA: -0.0236
AGGCGCAC: -0.269
